Published values from different studies.
A part holds a random share of what one study measured.

Block 1
Target: Centromere-binding protein 1, full length, N-terminal tag (CBF1, Saccharomyces cerevisiae, UniProt P17106, residues 1-351)
UniProt P17106, sequence (whole entry, looked up): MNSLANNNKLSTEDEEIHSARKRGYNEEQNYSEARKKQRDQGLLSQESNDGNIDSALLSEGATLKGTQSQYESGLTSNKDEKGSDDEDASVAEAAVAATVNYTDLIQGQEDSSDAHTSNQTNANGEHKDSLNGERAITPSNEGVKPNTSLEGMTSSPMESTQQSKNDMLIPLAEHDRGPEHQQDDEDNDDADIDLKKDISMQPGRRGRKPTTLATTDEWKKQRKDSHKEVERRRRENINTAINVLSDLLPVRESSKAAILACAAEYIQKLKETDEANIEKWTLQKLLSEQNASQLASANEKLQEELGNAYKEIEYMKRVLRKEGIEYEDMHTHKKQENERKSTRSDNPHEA
Technique: protein-binding microarray
Form: double-stranded DNA, one strand shown
Matrix: in vitro
Tested at: 0.8 µM
Setting: whole 60-bp probe, no competitor
Reading: higher = stronger binding
Endpoint: fluorescence intensity
CTAACTAGAAGCGATAACATCACAGTTATACGTTTCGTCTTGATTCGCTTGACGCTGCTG: 496 a.u.
GAAGTGTGTGGGTGTGGTGTGGGTGTGGGTGTGTAGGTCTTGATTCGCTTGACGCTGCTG: 553 a.u.
GAATGCCACCAGATTTTGGTGATGAAAAATTGTTAGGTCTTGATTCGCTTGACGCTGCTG: 518 a.u.
GAAGACATGTAACATCATCACTTCAAGCACAAATAGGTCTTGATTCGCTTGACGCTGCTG: 564 a.u.
GAACTAAACAAAAGTGATCACATGAGTTCAAATTAGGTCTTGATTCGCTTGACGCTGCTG: 4810 a.u.

Block 2
Target: Fragile X messenger ribonucleoprotein 1, C-terminal low-complexity region (Fmr1, Mus musculus, UniProt P35922)
Technique: RNA Bind-n-Seq
Form: RNA
Matrix: in vitro
Tested at: 200 nM
Setting: whole 134-nt RNA, ends assumed
With: 150 mM LiCl
Relative to: input library
Reading: higher = stronger binding
Endpoint: log2 enrichment
All molecules: 7-deaza-guanosine replaces G
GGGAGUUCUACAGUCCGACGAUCCUCAAGUCCUGUGCUACACAUCGUAUGUACCGAAUCGGGGCCGGGCCGGGCCGGAAAGUAUUAUGUUACGCCGUUCGGAUCUGCACUUCCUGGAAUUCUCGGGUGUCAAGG: 1.03
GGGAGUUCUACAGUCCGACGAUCUGUGGACGACAAUGAGGAGACCAUCAAAAAGCGGCUGGAGACCUAUUACAAGGCCACAGAACCUGUCAUCGCCUUCUAUGAGAAACGUGGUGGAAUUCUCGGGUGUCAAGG: -0.44
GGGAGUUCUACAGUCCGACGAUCGGGGGUGACCGCCGGAGCGCGGCGUGAGCCCUCCCCCUUGGGAUCCCGCAGCUGACCAGUCGCGCUGACGGACAGACAGACAGACACCGCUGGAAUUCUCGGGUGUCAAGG: -1.11
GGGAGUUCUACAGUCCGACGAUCACCAUGCAGGUGGGCAUCUUUGGGUAGUGGGGCAAGGGGGGGAUAGGGAGGGGGGUAACACUUUGGGAACAGGUGGUCCCAGGUCGUUUCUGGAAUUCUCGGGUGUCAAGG: 1.39
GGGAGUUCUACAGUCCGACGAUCUGGGAGGUGGAUUUUGUUUGUUUUUUUAGCUCAUUUCCAGGGGUGGGAAUUUUUUUUUAAUAUGUGUCAUGAAUAAAGUUGUUUUUGAAAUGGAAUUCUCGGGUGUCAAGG: 0.781

Block 3
Target: RNA binding protein fox-1 homolog 2, RRM domain, GST-SBP tag (RBFOX2, Homo sapiens, UniProt O43251-10, residues 100-194)
Technique: RNA Bind-n-Seq
Form: RNA
Matrix: in vitro
Tested at: 365 nM
Setting: natural RNA segment, single round, ends assumed
Relative to: no-protein control
Reading: higher = stronger binding
Endpoint: RBNS enrichment (R)
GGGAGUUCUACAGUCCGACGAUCGUGUGUGUGUUUAUUUAAGUUACUUUUCUUCCUUCUCCCCUUUUCUUUUUACCCCUCCCCCUUCUGCCAUGUAACUGGAGGAUGUGCUAUGAGGUUGCAAACAGCUGGACUGGAAUUCUCGGGUGCCAA: 2.44
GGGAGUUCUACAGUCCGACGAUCCCUAAGCACUUGCUGUUGUUCUUUUGUGAUUAUGGCUGUACAUUUAGUUGUCUUUCUAGUUAUGAAAAGAACGUUGACACACGUAGGCAUGGCCGCCCCACUCAGGUGUUUGGAAUUCUCGGGUGCCAA: 0.439
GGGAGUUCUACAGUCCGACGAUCAUUUUUAAUCCCUGUGCCCAAUUUUGGAGUUGAGAGGGUUGUUGGUAAUAAAUGUAUGAUGUACACUAAAACAUCUGUUGUGUUUCAUGUCACUGUGUUAGGGAUGGGGAUGGAAUUCUCGGGUGCCAA: 0.503
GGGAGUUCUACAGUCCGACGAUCGAAAGUAAGUCUGAUGGCUUGUUGUUUUGCUGUAGUUGUUUUGAAAAGCCGAAAUCAAAUGGUCAAGGCUGCUGAGGCUAAACUCCAGCAGAGUUUGCAGCGCUGAUGUGUGGAAUUCUCGGGUGCCAA: 0.443
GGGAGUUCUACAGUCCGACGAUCCCGAGGAGGAGGUCCCCUGGGCACAGGGCCUCUUUGGGACUUCAGAGGAAAUCUCCCAGUCCCACUCUCGGAGGGUUAAGAGAAGGCCUCCUGCAGCUGUGCCGUCCACAUGGAAUUCUCGGGUGCCAA: 0.381

Single results of other studies
PhoQ, residues 284 288 289 292 302 303 TNSAEL  fold induction (PhoP, residues 12 14 15 18 19 HLGGL (Escherichia coli, UniProt P23836); Sort-seq, measured: YFP reporter; E. coli; PhoQ-PhoP variant library, with: 10 µM Mg2+; relative to: high Mg2+ state, higher = stronger signaling): 1.35

Excerpt of the above (block 3):
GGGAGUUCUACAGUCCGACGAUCCCUAAGCACUUGCUGUUGUUCUUUUGUGAUUAUGGCUGUACAUUUAGUUGUCUUUCUAGUUAUGAAAAGAACGUUGACACACGUAGGCAUGGCCGCCCCACUCAGGUGUUUGGAAUUCUCGGGUGCCAA: 0.439
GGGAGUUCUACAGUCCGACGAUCAUUUUUAAUCCCUGUGCCCAAUUUUGGAGUUGAGAGGGUUGUUGGUAAUAAAUGUAUGAUGUACACUAAAACAUCUGUUGUGUUUCAUGUCACUGUGUUAGGGAUGGGGAUGGAAUUCUCGGGUGCCAA: 0.503
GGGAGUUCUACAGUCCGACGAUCGAAAGUAAGUCUGAUGGCUUGUUGUUUUGCUGUAGUUGUUUUGAAAAGCCGAAAUCAAAUGGUCAAGGCUGCUGAGGCUAAACUCCAGCAGAGUUUGCAGCGCUGAUGUGUGGAAUUCUCGGGUGCCAA: 0.443
